Assay results of several laboratories.
Lines come from different studies, so protocols differ.

O=C(c1ccnc(N2Cc3cn(Cc4ccc(F)cc4)nc3C2)n1)N1CCOCC1  half-life (metabolic stability; human, liver microsomes): 5.47 h
C/C(N)=N/C(=N\S(=O)(=O)c1ccc(C(F)(F)F)cc1)N1C[C@H](c2ccccc2)C(c2ccc(Cl)cc2)=N1  half-life (female cynomolgus monkey, plasma; intravenous, 2 mg/kg): 15 h
CC(=O)Nc1ccnc(N2Cc3cnn(Cc4ccc(F)cc4)c3C2)n1  half-life (metabolic stability; human, liver microsomes): 0.55 h
COc1cc2ncnc(Oc3ccc(Nc4nccc5[nH]cc(-c6ccc(F)cc6)c(=O)c45)cc3F)c2cc1OC  half-life (male cynomolgus monkey, plasma; intravenous, 1.5 mg/kg): 13.1 h
Cc1c(Cc2ccc(F)c(OC(C)C(=O)O)c2)c2ccc(C(=O)NC(C)c3ccc(C(C)(C)C)cc3)cc2n1CC(C)C (stereo not shown)  half-life (metabolic stability; human, liver microsomes): > 1 h
CN(C)C(=O)c1cccc(N2Cc3cn(Cc4cc(Cl)cc(Cl)c4)nc3C2)c1  half-life (metabolic stability; human, liver microsomes): 0.5 h
COC1CN([C@H]2CC[C@H]([C@@]3(C)Oc4c(Cl)cc(C(=O)NCc5c(SC)cc(C)[nH]c5=O)c(C)c4O3)CC2)C1  half-life (female CB17 SCID mice, HT-1376 xenograft, plasma; 75 mg/kg, day 1): 2.85 h
CCN(CC)CC#CCNc1ccnc2cc(Cl)ccc12  revertants per well (Salmonella typhimurium; mini-Ames test; TA1535; 500.0 µg/well, with rat liver S9): 4
Cc1ncsc1-c1ccc(C(C)NC(=O)C2CC(O)CN2C(=O)C(NC(=O)CCCCCCCCCCN2CCCC(Nc3ncc(Cl)c(Nc4ccccc4S(=O)(=O)C(C)C)n3)C2)C(C)(C)C)cc1 (stereo not shown)  log2 fold change (22Rv1; RNA-seq, measured: ZNF563 mRNA; concentration not given; baseline: DMSO): -2.48
C=CC(=O)Nc1cccc(Cn2ncc3cnc(Nc4cnn(CCOC)c4)nc32)c1  percent of control (ZAK human; binding, KINOMEscan; 100 nM; lower = stronger binding): 99%
COc1cccc2c(N3CCC(CCP(=O)(O)O)CC3)ncnc12  half-life (C57BL/6 mice, female, cerebrospinal fluid; subcutaneous, 100 mg/kg): 10 h
Cc1c(Cc2ccc(Cl)c(O[C@@H](C)C(=O)O)c2)c2ccc(C(=O)N[C@@H](C)c3ccc(C(C)(C)C)cc3)cc2n1C  half-life (metabolic stability; human, liver microsomes): > 1 h
C=C(NC(=O)c1csc(-c2nc3c(cc2O)-c2nc(cs2)C(=O)NC(C(C)O)C(=O)NC(=C(C)OC)c2nc(cs2)C(=O)NC2c4nc(cs4)C(=O)NC(COC(=O)c4c5c6c(cccc6n4O)COC(=O)C(OC4CC(C)(O)C(N(C)C)C(C)O4)C2OC5)c2nc-3cs2)n1)C(N)=O (stereo not shown)  half-life (female cynomolgus monkey, plasma; intravenous, 3 mg/kg, single dose, infusion): 5.79 h
O=C(c1ccnc(N2Cc3cn(Cc4ccc(F)cc4)nc3C2)n1)N1CCCCC1  half-life (metabolic stability; human, liver microsomes): 0.85 h
Cc1c(Cc2cccc(OC(C)(C)C(=O)O)c2)c2ccc(C(=O)N[C@@H](C)c3cccc(C(C)(C)C)c3)cc2n1CC1CCC1  half-life (metabolic stability; human, liver microsomes): 0.933 h
CNC(=O)C1CCCN(C(=O)C2CC3CCC2N3C(=O)[C@@H]2C[C@@H](O)CN2C(=O)NCc2cccc(Cl)c2F)C1 (mixture of isomers)  remaining activity (CYP3A4 (human); inhibitor, time-dependent inhibition; 0.617 µM, preincubated without NADPH, together with: testosterone substrate; baseline: negative control): 102%
CC(C)OCCOCc1ccc(OCC(O)CN(N=O)C(C)C)cc1 (stereo not shown)  revertant fold increase (Salmonella typhimurium; Ames test; TA1535; 158 µg/plate, without metabolic activation; baseline: solvent control): 0.8 fold
Cc1c(Cc2ccc(Cl)c(OC(C)C(=O)O)c2)c2ccc(C(=O)NC(C)c3ccc(C(C)(C)C)cc3)cc2n1CC1CCC1 (stereo not shown)  half-life (metabolic stability; human, liver microsomes): > 1 h
Nc1ncc(-c2cc(-c3cnn(CC(F)(F)F)c3)ncc2F)nc1C(=O)NC1CNCC(F)C1 (stereo not shown)  remaining binding (TYRO3; KINOMEscan; 1 µM; baseline: DMSO control): 38%

A few entries again:
O=C(c1ccnc(N2Cc3cn(Cc4ccc(F)cc4)nc3C2)n1)N1CCOCC1  half-life (metabolic stability; human, liver microsomes): 5.47 h
Nc1ncc(-c2cc(-c3cnn(CC(F)(F)F)c3)ncc2F)nc1C(=O)NC1CNCC(F)C1 (stereo not shown)  remaining binding (TYRO3; KINOMEscan; 1 µM; baseline: DMSO control): 38%
